Results pooled from the literature.
± gives the spread as reported. ≈ marks a conversion by molar mass, not a printed value.

CCCCCCCCCCC(=O)O[C@H]1CC[C@H]2[C@@H]3CCC4=CC(=O)CC[C@]4(C)[C@H]3CC[C@]12C
serum testosterone (blood of hypogonadal men, plain tubes; 300 ng/mL): 242 ± 15.2 ng/dL

C[C@@H]1N=C(c2ccccc2F)c2cc(Br)ccc2NC1=O
concentration (male Wistar rat, plasma; intraperitoneal, 0.5 mg/kg, 20 min): 188 nM

Cc1ncc2n1-c1ccc(Cl)cc1C(c1ccccc1F)=NC2
AUC(0-inf) geometric mean (healthy men, plasma; oral, 7.5 mg, without amenamevir): 113 ng·h/mL

COc1ccc2c(c1)[C@]13CCCC[C@@H]1[C@H](C2)N(C)CC3
MRT(0-t) (Wistar rat, both sexes, plasma; oral, 5 mg/kg, 2 h after pretreatment, added: single TCE 400 mg/kg): 146 ± 32.4 min

Cc1ncc2n1-c1ccc(Cl)cc1C(c1ccccc1F)=NC2
Tmax (human CYP3A5 expressers, serum; oral, added: ketoconazole 200 mg): 48 min

COC(=O)C(OC(=O)c1cncn1C(C)c1ccccc1)C(C)C (centres unmarked)
selectivity ratio (metabolism rate; Sprague-Dawley rat, pooled blood; baseline: (R)-form over (S)-form): 100 fold

CN1CC[C@]23c4c5ccc(O)c4O[C@H]2[C@@H](O)C=C[C@H]3[C@H]1C5
immobility time (forced swim test; ICR mice; intrathecal, 2 nmol, 30 min before test, minutes 2 to 6): 170 ± 7.8 s

C[C@H]1CNCCc2ccc(Cl)cc21
plasma concentration (Sprague-Dawley rat, male, plasma; subcutaneous, 0.5 mg/kg, 240 min): 2.05 ± 0.07 ng/mL

C#Cc1ccc2c(c1)C(c1ccccc1)=NCc1c(C(=O)OCC)ncn1-2
compound remaining (metabolic stability; human, liver microsomes; 30 min, pH 7.4): < 14%

C=C1C[C@@H]2[C@H](CC[C@]3(C)C(=O)CC[C@@H]23)[C@@]2(C)C=CC(=O)C=C12
median plasma concentration (LC-MS/MS; postmenopausal breast cancer women, plasma; oral, 25 mg/day, 2 h, CrCl over 108.5 mL/min): 5.9 ng/mL

C#Cc1ccc2c(c1)C(c1ccccc1F)=N[C@@H](C)c1c(C(=O)OCC(F)(F)F)ncn1-2
compound remaining (metabolic stability; human, liver microsomes; 30 min): < 5%

CN1CC[C@@]23CCCC[C@@H]2[C@@H]1Cc1ccc(O)cc13
AUC(0-t) (Wistar rat, both sexes, plasma; oral, 5 mg/kg DEM, DEM 2 h after pretreatment, added: TCE 100 mg/kg single pretreatment): 65.9 ± 32.6 ng·h/mL

CC1N=C(c2ccccc2F)c2cc(NC(C)(C)C)ccc2NC1=O (centres unmarked)
aqueous solubility (shake flask; PBS; 24 h, pH 7.4): 394 µM (≈ 134 µg/mL)

CNC(=O)O/N=C/C(C)(C)SC
percent metabolized (human liver mitochondrial preparation; 1 µM, 30 min, 0.5 mg/mL protein): 10.9%

COc1ccsc1CNCC[C@@]1(c2ccccn2)CCOC2(CCCC2)C1
volume of distribution (Vz) (healthy human, normal renal function, plasma; intravenous, 1 mg single dose, arithmetic mean): 196 L

C=CCN1CC[C@]23c4c5ccc(O)c4O[C@H]2C(=O)CC[C@@]3(O)[C@H]1C5
EC20 (mitochondrial swelling; BALB/cByJ female mouse liver mitochondria; 30 min, added: succinate + rotenone; baseline: CaCl2 maximal swelling): > 400 µM

NC1(c2ccccc2Cl)CCCCC1=O (racemic)
Tmax (male Wistar rats, plasma; intraperitoneal, 40 mg/kg single dose): 26.4 ± 28.8 min

Repeated from above:
C#Cc1ccc2c(c1)C(c1ccccc1)=NCc1c(C(=O)OCC)ncn1-2
compound remaining (metabolic stability; human, liver microsomes; 30 min, pH 7.4): < 14%
